Assay results collected from several papers.
Protocols differ between the studies behind these lines.
Organism: Staphylococcus aureus

CCCCCCCCCCCC[N+](C)(C)CCCCCCCCCCOc1cc(OCCCCCCCCCC[N+](C)(C)CCCCCCCCCCCC)cc(OCCCCCCCCCC[N+](C)(C)CCCCCCCCCCCC)c1.[Br-].[Br-].[Br-]  MIC (CA-MRSA USA300-0114): 16 µM
COc1c(C)c(OS(=O)(=O)c2ccccc2)c(C)c(OS(=O)(=O)c2ccccc2)c1C(=O)/C=C/c1ccccc1  MIC (microbial growth, broth dilution; ATCC25923): 5000 µg/mL
CC[C@H](C)[C@H](NC(=O)[C@@H](CCCNC(=N)N)NC(=O)[C@H](CCCNC(=N)N)NC(=O)[C@@H]1CCCN1C(=O)[C@@H]1CCCN1C(=O)[C@H](CCCNC(=N)N)NC(=O)[C@@H]1CCCN1C(=O)[C@H](CCCNC(=N)N)NC(=O)[C@@H]1CCCN1C(=O)[C@H](CC(C)C)NC(=O)[C@H](Cc1ccc(O)cc1)NC(=O)[C@@H]1CCCN1C(=O)[C@@H]1CCCN1C(=O)[C@H](CCCNC(=N)N)NC(=O)[C@H](CC(=O)O)NC(=O)[C@@H](N)C(C)C)C(=O)N[C@@H](Cc1ccc(O)cc1)C(=O)N[C@@H](CC(N)=O)C(=O)N[C@H](CCCNC(=N)N)C(N)=O  MIC (broth microdilution; DSM 6247; 18 h, 37 °C, 25% MHB2): > 128 µg/mL
CCCCCCCC[N+](C)(C)CCCCCCOc1cc(OCCCCCC[N+](C)(C)CCCCCCCC)cc(OCCCCCC[N+](C)(C)CCCCCCCC)c1.[Br-].[Br-].[Br-]  MIC (SH1000 MSSA): 0.5 µM
CC[C@H]1OC(=O)[C@H](C)C(=O)[C@H](C)[C@@H](O[C@@H]2O[C@H](C)C[C@H](N(C)C)[C@H]2O)[C@](C)(OC)C[C@@H](C)C(=O)[C@H](C)[C@H]2N(CCCCn3cnc(-c4cccnc4)c3)C(=O)O[C@]12C  MIC (DSM 20231 MSSA): 0.3 µg/mL
C[C@@H]1C(=O)O[C@@H](C)/C=C/C=C\[C@@H](C)[C@@H]2C=C[C@@H]3C[C@@]4(C)O[C@H]4[C@@H](C)[C@H]3[C@@H]2C(=O)C(Cl)(Cl)C1=O  MIC (MSSA clinical isolate; PEN ERY TET resistant): 0.05 µg/mL
CC[C@H](C)[C@H](N)C1=N[C@H](C(=O)N[C@@H](CC(C)C)C(=O)N[C@H](CCC(=O)O)C(=O)N[C@H](C(=O)N[C@H]2CCCCNC(=O)[C@H](CC(N)=O)NC(=O)[C@@H](CC(=O)O)NC(=O)[C@H](Cc3c[nH]cn3)NC(=O)[C@@H](Cc3ccccc3)NC(=O)[C@H]([C@@H](C)CC)NC(=O)[C@@H](CCCN)NC2=O)[C@@H](C)CC)CS1  MIC (ATCC 29213; together with: EDTA 0.3 mM): > 64 µg/mL
CCCCCCC#Cc1cncc(-c2nnc(SCc3cc([N+](=O)[O-])cc([N+](=O)[O-])c3)n2C)c1  MIC (microbial growth, broth dilution; MRSA): > 64 µg/mL
CCCCCCCCCCn1cc[n+](CCCCCCOc2cc(OCCCCCC[n+]3ccn(CCCCCCCCCC)c3)cc(OCCCCCC[n+]3ccn(CCCCCCCCCC)c3)c2)c1.[Br-].[Br-].[Br-]  MIC (SH1000 MSSA): 2 µM
CCC(CC)c1cc(CCN2CCCN(S(=O)(=O)c3ccc(C)cc3)CC2)nc(-c2ccccn2)n1  MIC (microbial growth, broth dilution; ATCC29213): > 16 µg/mL
CC[C@H]1OC(=O)[C@H](C)[C@@H](OC(=O)Cc2ccc(C(F)(F)F)cc2)[C@H](C)[C@@H](O[C@@H]2O[C@H](C)C[C@H](N(C)C)[C@H]2O)[C@](C)(OC)C[C@@H](C)C(=O)[C@H](C)[C@@H](O)[C@]1(C)O  MIC (BAA-977): 4 µg/mL
CCCCCCCCn1cc[n+](CCCCOc2cc(OCCCC[n+]3ccn(CCCCCCCC)c3)cc(OCCCC[n+]3ccn(CCCCCCCC)c3)c2)c1.[Br-].[Br-].[Br-]  MIC (CA-MRSA USA300-0114): 0.5 µM
O=C(Nc1ccc(Oc2ccncc2)cc1)Nc1ccc(Cl)c(C(F)(F)F)c1  MIC (microbial growth; NCTC8325): 3 µM
CC[C@H]1OC(=O)[C@H](C)[C@@H](OC(=O)c2ccc([N+](=O)[O-])cc2)[C@H](C)[C@@H](O[C@@H]2O[C@H](C)C[C@H](N(C)C)[C@H]2O)[C@](C)(OC)C[C@@H](C)C(=O)[C@H](C)[C@@H](O)[C@]1(C)O  MIC (DSM 20231 MSSA): > 64 µg/mL
C/C(=C\c1ccc(O)cc1)C(=O)Nc1ccc(C(=O)N[C@@H](Cc2c[nH]nn2)C(=O)Nc2ccc(C(=O)Nc3ccc(C(=O)Nc4ccc(C(=O)O)c(O)c4)c(O)c3)cc2)cc1  MIC (broth microdilution; ciprofloxacin-sensitive): 1 µg/mL
CCCCCCCC(=O)Oc1c(C)c(OC)c2c(/C=C/c3ccccc3)c(CCCCCC)c(=O)oc2c1C  MIC (microbial growth, broth dilution; ATCC25923): 5000 µg/mL
CNC(C)C1CCC(N)C(OC2C(N)CC(N)C(OC3OCC(C)(O)C(NC)C3O)C2O)O1 (centres unmarked)  MIC (microbial growth, broth dilution; 43300): 32 µM
CCCCCCCCCCn1cc[n+](CCCCCCCCOc2cc(OCCCCCCCC[n+]3ccn(CCCCCCCCCC)c3)cc(OCCCCCCCC[n+]3ccn(CCCCCCCCCC)c3)c2)c1.[Br-].[Br-].[Br-]  MIC (HA-MRSA ATCC 33591): 16 µM
CC[C@H]1OC(=O)[C@H](C)[C@@H](OC(=O)CC2CCCCC2)[C@H](C)[C@@H](O[C@@H]2O[C@H](C)C[C@H](N(C)C)[C@H]2O)[C@](C)(OC)C[C@@H](C)C(=O)[C@H](C)[C@@H](O)[C@]1(C)O  MIC (DSM 20231 MSSA): 4 µg/mL
CCCCCCCC(=O)N[C@@H](CC(N)=O)C(=O)N[C@H]1CNC(=O)[C@H](c2ccc(O)c(Cl)c2)NC(=O)[C@@H](C)NC(=O)[C@H](CC(C)C)NC(=O)CNC(=O)[C@H](c2ccc(O)cc2)NC(=O)[C@@H]([C@H](C)O)NC(=O)[C@H](c2ccc(O)cc2)NC(=O)[C@@H](CCCN)NC(=O)[C@H](Cc2ccccc2)NC(=O)[C@H]([C@@H](C)O)NC(=O)[C@@H](c2ccc(O)cc2)NC(=O)[C@H](c2ccc(O)cc2)NC(=O)[C@@H]([C@H](C)O)NC(=O)[C@@H](CCCN)NC(=O)[C@@H](c2ccc(N)cc2)NC1=O  MIC (MSSA ATCC 29213): > 16 µM
CC[C@H]1OC(=O)[C@H](C)[C@@H](OC(=O)Cc2ccc(N(C)C)cc2)[C@H](C)[C@@H](O[C@@H]2O[C@H](C)C[C@H](N(C)C)[C@H]2O)[C@](C)(OC)C[C@@H](C)C(=O)[C@H](C)[C@@H](O)[C@]1(C)O  MIC (BAA-977): 64 µg/mL
CN[C@H](CC(C)C)C(=O)N[C@H]1C(=O)N[C@@H](CC(N)=O)C(=O)N[C@H]2C(=O)N[C@H]3C(=O)N[C@H](C(=O)N[C@H](C(=O)NCc4cn(CCCCC(=O)N[C@H](C(=O)N[C@@H](CCN)C(=O)N[C@H]5CCNC(=O)[C@H]([C@@H](C)O)NC(=O)[C@H](CCN)NC(=O)[C@H](CCN)NC(=O)[C@H](CC(C)C)NC(=O)[C@@H](CC(C)C)NC(=O)[C@H](CCN)NC5=O)[C@@H](C)O)nn4)c4cc(O)cc(O)c4-c4cc3ccc4O)[C@H](O)c3ccc(c(Cl)c3)Oc3cc2cc(c3O[C@@H]2O[C@H](CO)[C@@H](O)[C@H](O)[C@H]2O[C@H]2C[C@](C)(N)[C@H](O)[C@H](C)O2)Oc2ccc(cc2Cl)[C@H]1O  MIC (broth microdilution; MRSA USA300, cation-adjusted Mueller-Hinton broth; 20 to 24 h, 37 °C, 0.002% polysorbate 80): 0.25 µg/mL
COc1nc(C(=O)Nc2ccc(C(=O)O)c(O)c2OC)ccc1NC(=O)c1ccc(NC(=O)[C@H](Cc2c[nH]nn2)NC(=O)c2ccc(NC(=O)/C(C)=C/c3ccc(O)cc3)cc2)cc1  MIC (broth microdilution; ciprofloxacin-resistant): 2 µg/mL

Repeated from above:
CCCCCCCC(=O)N[C@@H](CC(N)=O)C(=O)N[C@H]1CNC(=O)[C@H](c2ccc(O)c(Cl)c2)NC(=O)[C@@H](C)NC(=O)[C@H](CC(C)C)NC(=O)CNC(=O)[C@H](c2ccc(O)cc2)NC(=O)[C@@H]([C@H](C)O)NC(=O)[C@H](c2ccc(O)cc2)NC(=O)[C@@H](CCCN)NC(=O)[C@H](Cc2ccccc2)NC(=O)[C@H]([C@@H](C)O)NC(=O)[C@@H](c2ccc(O)cc2)NC(=O)[C@H](c2ccc(O)cc2)NC(=O)[C@@H]([C@H](C)O)NC(=O)[C@@H](CCCN)NC(=O)[C@@H](c2ccc(N)cc2)NC1=O  MIC (MSSA ATCC 29213): > 16 µM
C[C@@H]1C(=O)O[C@@H](C)/C=C/C=C\[C@@H](C)[C@@H]2C=C[C@@H]3C[C@@]4(C)O[C@H]4[C@@H](C)[C@H]3[C@@H]2C(=O)C(Cl)(Cl)C1=O  MIC (MSSA clinical isolate; PEN ERY TET resistant): 0.05 µg/mL
